Experimental data gathered from unrelated publications.
Compare with care: the assays were run in different laboratories. “And” joins repeats or separate records; there may be more than shown. Numbers after ± are the reported error.
Cell line: MCF7

COCCCCCNc1nc(NCCCCCCN(C)C)c2cc(NC(=O)/C=C/CN(C)C)ccc2n1  viability (CellTiter-Glo; 1.562 µM, 48 h, unit not given; relative to: DMSO-treated cells): 1.02 and 1.12 and 1.09
CSC(=NN=C(C)c1ccc(S(=O)(=O)N2CCC(C)CC2)cc1)N(C)C  cells in G2/M phase (flow cytometry; 4.29 µM (IC50), 72 h): 28.3%
CCC(=CCc1c(O)cc2c(c1O)C(=O)CC(c1ccc(OC)c(O)c1)O2)CC (centres unmarked)  growth inhibition (cytotoxicity, MTT; 0.627 µM, 48 h): 2.6%
COC(=O)c1cc(NC2=NC(=O)C(=Cc3ccc(N(C)C)cc3)S2)ccc1OC(C)=O  metabolite level (GC-MS, refers to: Myo-Inositol; 1 µM; relative to: DMSO): 0.18 fold change
Cc1ccc2c(Cl)cc(Cl)c([O-])c2n1.Cc1ccc2c(Cl)cc(Cl)c([O-])c2n1.[Co+2].c1cnc2c(c1)ccc1cccnc12  IC50 (cell growth or viability, MTT; 48 h): 7.22 µM
C[C@@H]1CC[C@@H]([C@@](O)(COCc2ccccc2)Cn2cnc3ccccc32)[C@H](OCc2ccccc2)C1  inhibition (cell growth or viability, MTT; 10 µM, 72 h): 67.5%
CC(=NN=c1sc(C(=O)c2ccccc2)nn1-c1ccccc1)c1ccc(S(=O)(=O)N2CCC(C)CC2)cc1  late apoptotic cells (annexin V/PI; concentration not given, 72 h, at IC50): 6.77%
COc1ccc(C2CC(=O)c3c(cc(O)c(CC=C(C)C)c3O)O2)cc1 (centres unmarked)  growth inhibition (cytotoxicity, MTT; 2.822 µM, 48 h): 4.87%
C[C@@H]1CC[C@@H]([C@@](O)(CNCc2ccc(F)cc2)COCc2ccc(F)cc2)[C@H](OCc2ccc(F)cc2)C1  inhibition (cell growth or viability, MTT; 10 µM, 72 h): 96.4%
Oc1ccnc(-c2cc(O)ccn2)c1.[Cl-].[Cl-].[Ru+2].c1ccc(-c2ccnc3c2ccc2c(-c4ccccc4)ccnc23)cc1.c1ccc(-c2ccnc3c2ccc2c(-c4ccccc4)ccnc23)cc1  EC50 (cell growth or viability; dark): > 100 µM
C=CCc1c(O)cc2c(c1O)C(=O)CC(c1ccc(O)cc1)O2 (centres unmarked)  growth inhibition (cytotoxicity, MTT; 128.1 µM, 48 h): 58.2%
C[C@@H]1CC[C@@H]([C@](O)(CNCc2ccccc2F)COCc2ccccc2)[C@H](OCc2ccccc2)C1  inhibition (cell growth or viability, MTT; 10 µM, 72 h): 97.4%
CCCCCCCCCCCCCC(=S)NCCCC[C@H](NC(=O)OCc1ccccc1)C(=O)Nc1ccccc1  EC50 (cell growth or viability, MTT; 72 h): 6.88 to 8.41 µM
CC(=O)[O][Pd][c]1ccccc1-n1nc(C)cc1C.CC(=O)[O][Pd][c]1ccccc1-n1nc(C)cc1C  caspase-9 active cells (FLICA flow cytometry; 25 µM, 24 h): 40.6 ± 1.15%
COCCn1cc(COc2cccc(Cc3cnc(NC(=O)CSc4nc(C)cc(C)n4)s3)c2)nn1  inhibition (cell viability, MTS; 10 µM): 10.5 ± 1.7%
CC[C@@H]([C@@H](C)c1ccc(O)cc1)[C@@H](CC)c1ccc(O)cc1  EC50 (cell growth or viability, ATP luminescence; 5 days): 0.0076 µM
CC(C)C[C@@H](NC(=O)[C@H](C)NC(=O)CNC(=O)[C@@H](NC=O)C(C)C)C(=O)N[C@@H](C)C(=O)N[C@@H](C(=O)N[C@H](C(=O)N[C@@H](C(=O)N[C@@H](Cc1c[nH]c2ccccc12)C(=O)N[C@H](CC(C)C)C(=O)N[C@@H](Cc1c[nH]c2ccccc12)C(=O)N[C@H](CC(C)C)C(=O)N[C@@H](Cc1c[nH]c2ccccc12)C(=O)N[C@H](CC(C)C)C(=O)N[C@@H](Cc1c[nH]c2ccccc12)C(=O)NCCO)C(C)C)C(C)C)C(C)C  cells in G1 phase (flow cytometry; 20 nM, 48 h): 52.1 ± 0.94%
CCCCCCCCCCCCNC(=S)NCCCC[C@H](NS(C)(=O)=O)C(=O)N[C@H](C)C(=O)N[C@@H](CCCNC(=N)N)C(N)=O  EC50 (cell growth or viability, MTT; 72 h): 31.9 to 53.3 µM
CC(=O)[O][Pd][c]1cc(C)ccc1N1N=C(C)C(C)(C)C1=O.CC(=O)[O][Pd][c]1cc(C)ccc1N1N=C(C)C(C)(C)C1=O  late apoptotic cells (annexin V/PI flow cytometry; 25 µM, 24 h): 58.8 ± 1.13%
CSC(=S)N/N=C(\C)c1ccc(S(=O)(=O)N2CCC(C)CC2)cc1  cells in G0/G1 phase (flow cytometry; 4.29 µM (IC50), 72 h): 34.9%
COc1cccc(CNC[C@@](O)(COCc2ccccc2)[C@@H]2CC[C@@H](C)C[C@H]2OCc2ccccc2)c1  inhibition (cell growth or viability, MTT; 30 µM, 72 h): 95.3%
CCN(C(=O)c1cc(F)ccc1Oc1nncnc1N1CCC2(C1)CN([C@H](CCCN(C)CCOC)C(C)C)C2)C(C)C  GI50 (cell growth or viability; 72 h): > 10 µM
CC(=O)[O][Pd][c]1ccccc1N1N=C(C)C(C)(C)C1=O.CC(=O)[O][Pd][c]1ccccc1N1N=C(C)C(C)(C)C1=O  caspase-9 active cells (FLICA flow cytometry; 25 µM, 24 h): 29.6 ± 0.8%
CCC(=CCc1c(O)cc2c(c1O)C(=O)CC(c1ccccc1O)O2)CC (centres unmarked)  growth inhibition (cytotoxicity, MTT; 27.14 µM, 48 h): 8.55%
C[C@@H]1CC[C@@H]([C@](O)(CNCc2ccc(F)cc2)COCc2ccccc2)[C@H](OCc2ccccc2)C1  inhibition (cell growth or viability, MTT; 30 µM, 72 h): 98.6%
Cc1c(COc2cc(OCc3cccc(C#N)c3)c(CNC(CO)(CO)CO)cc2Cl)cccc1-c1cccc(OCCCCCC(=O)NO)c1  G1 phase cells (flow cytometry, PI staining; 5 µM, 48 h): 45.2%
COc1ccc(CNC[C@](O)(COCc2ccccc2)[C@@H]2CC[C@@H](C)C[C@H]2OCc2ccccc2)cc1  inhibition (cell growth or viability, MTT; 30 µM, 72 h): 84.5%
CCC(=CCc1c(O)cc2c(c1O)C(=O)CC(c1cccc(O)c1)O2)CC (centres unmarked)  growth inhibition (cytotoxicity, MTT; 3.393 µM, 48 h): 14.9%
COc1ccc(COC[C@](O)(CNCc2ccccc2)[C@@H]2CC[C@@H](C)C[C@H]2OCc2ccc(OC)cc2)cc1  inhibition (cell growth or viability, MTT; 10 µM, 72 h): 97.5%
CCn1c(-c2ccccc2)cs/c1=N/N=C(\C)c1c(O)c2ccccc2oc1=O  selectivity index (cell growth, MTT; relative to: IC50 BJ-1 over MCF7): > 3.86
COc1ccc(COC[C@](O)(CNCc2ccc(F)cc2)[C@@H]2CC[C@@H](C)C[C@H]2OCc2ccc(OC)cc2)cc1  inhibition (cell growth or viability, MTT; 10 µM, 72 h): 98%
O=C(CCl)c1ccccc1Nc1cccc(C(F)(F)F)c1  TEAD reporter activity (firefly luciferase reporter; 50 µM, 6 h; relative to: vehicle): 0.3 ± 0.1%
